Measurements from different studies.
Numbered parts are unrelated; each lists some results of a single study. Positions count from the first letter of the parent shown.

Block 1 — target: CCNA2, cyclin fold, Cln2 fusion (human); technique: yeast growth competition, sequencing; sample: yeast; notes: strong parent motif; baseline: not given; reading: higher = stronger binding
Starting sequence: CDC6 docking peptide (human); TLKGRRLVFDNQL
Variant | normalised enrichment score
TRKGRRLVFDNQL [L2R] | 5.02
TLKGRRLVFDKQL [N11K] | 2.62
TLKGRRLNFDNQL [V8N] | 4.72
TLKGVRLVFDNQL [R5V] | 0.837
TLKGYRLVFDNQL [R5Y] | 0.244
TLKGRRLVFWNQL [D10W] | 2.12
TLKGRRLFFDNQL [V8F] | 2.53
TLKSRRLVFDNQL [G4S] | 0.525
TLKGRRLVFKNQL [D10K] | 1.46
TLKGRRLVFDNTL [Q12T] | 3
ILKGRRLVFDNQL [T1I] | 2.71
TLKGRRLVPDNQL [F9P] | 0.867
TLKGRLLVFDNQL [R6L] | 1.33
TLMGRRLVFDNQL [K3M] | 1.57
TLKGRPLVFDNQL [R6P] | -0.976
TLKGRRLVFDNKL [Q12K] | 2.28
TLKGRRKVFDNQL [L7K] | 1.35
TLKGRRLVFSNQL [D10S] | 2.68
TLCGRRLVFDNQL [K3C] | 3.66
TLKGRRLVFDNQT [L13T] | 2.52
TLKGRRLVFDNCL [Q12C] | 3.5
TLKGRRRVFDNQL [L7R] | 0.772
TLKGRRLVFDSQL [N11S] | 2.26
TVKGRRLVFDNQL [L2V] | 3.13
TLKGRRLVFDNWL [Q12W] | 2.8

Block 2 — technique: RNA Bind-n-Seq; form: RNA; sample: in vitro; tested at: 365 nM; baseline: no-protein control; reading: higher = stronger binding
Target: RNA binding protein fox-1 homolog 2, RRM domain, GST-SBP tag (RBFOX2, Homo sapiens, UniProt O43251-10, residues 100-194)
Notes: natural RNA segment, single round, ends assumed
Shared flanks, not repeated: GGGAGUUCUACAGUCCGACGAUC … UGGAAUUCUCGGGUGCCAA
Residues (chain): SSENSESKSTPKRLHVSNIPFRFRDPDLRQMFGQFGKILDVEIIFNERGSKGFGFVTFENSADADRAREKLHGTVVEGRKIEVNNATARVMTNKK
Sequence | RBNS enrichment (R)
GUGAACUCAGUAUGCAUGUGUGAAUGCUGAACUGCAGGAGUGGUGUUGAGGCGACCGAGAAGAUCCACGCAGCCAUCUUGGGUUUUGGUGAUGACGUCAGUCUAAUGAGU | 22.8
CCCCCAUAUGCCCAGUCUUGCUUGAAGUAGCACAGACCCUGUGUGGGUUUGGCCCCUAGCUCCCACCAUGCUCCAUAGCAAAUGGCUAAAUUAAUAAAGAAGCAAAACUG | 0.314
GAGUUUAUUAUAACUUAUUGUUCAUAUUCAUUUCUAAGUUAAUUUAAGUAAUCAUUUAUUAAGACAGAAUUUUGUAUAAACUAUUUAUUGUGCUCUCUGUGGAACUGAAG | 0.64
AUUGGGAGAAUUACUGCCUUUACUUUGGGACUACUUUUAUGCUGAUAACUUGGGAUUUCUUGAUAGUCCUUCACCCCUGAAACCCCGUAUUUACUUAACAAGAUUUAGCU | 0.344
GCCCCACCUUCGGCUCUGAUGCCCUUCCCAAAGCCCUUUUCACCCGUGGUCUGACUUGACCCUGGGCCUUUUGGACACAGGUCAGCCUUCUGAUGUUUUCUGGCUGUCUU | 0.349
AAAAGUGAUUUUUUUAAGGACAGAACUUCUUCCAAAAGAGAGGGAUGGCUUUCCCAGAAGACACUCCUGGCCAUCUGUGGAUUUGUCUGUGCACCUAUUGGCUCUUCUAG | 0.647
UUUUGUCUUUAAUAGAGGAGGCAGAGGGAUCUGUGACUUAAAAGCCAGUCUGAUCUACAUUGUGAGUUCCAAGACAGCCAAAACUACAUAAUGAGACCCUGUCUCAAAAA | 0.276
UUUACUAGGGCUACUUCUGGAAGCCAAAAUAGAAUAGCAUUUCCAUGUGCAUUAAAUACUUUGCCAGCACUGCCUUUGCCAGCAUCCUAAAUCUGGAGUUUUACAAAGAA | 0.364
AUGAAAUACAUGUAUAUUGUGUAUGGACUUAAUUAUGCACAUGCUCAGAUGUGUAGACAUCCUCCGUAUAUUUACAUAACAUAUAGAGGUAAUAGAUAGGUGAUAUACAU | 0.512
UUUGAAAGCAGUAUGGCUUCUUCUGUGGGUCUCCCUCUUACUAGACAAGGUGAAAUGAUAAUUCGUGUCAAAUUAAUGUGAAAUUUUUUUCCUGCAUUGUAAUAUUAUGA | 0.696
GUAUCGGGAUCUUUGUUGGUUUGACAUUGCUGUUUUGGGUUAAGAUAUUGAGUCUAGGCUCCAAUUACUCUCUAUCCUGUCUUUAGAGAGCUGUGAUUGAGUGUGCUAUU | 0.915
AAUUCUGGAAGUGUCUAUGAACUUCCAUAAAUAACUUUAAUUUUAGUAUAAUGAUGGUCUUGGAUUGUCUGACCUCAGUAGCUAUUAAAUAACAUCAAGUAACAUCUGUA | 1.02

Block 3 — technique: universal PBM; form: double-stranded DNA, one strand shown; sample: in vitro; tested at: not given; reading: higher = stronger binding
Target: Sal-like protein 4, full length isoform B (SALL4, Homo sapiens, UniProt Q9UJQ4-2, residues 1-616)
Notes: 8-mer, flanks averaged, mean of replicates
Target sequence (chain): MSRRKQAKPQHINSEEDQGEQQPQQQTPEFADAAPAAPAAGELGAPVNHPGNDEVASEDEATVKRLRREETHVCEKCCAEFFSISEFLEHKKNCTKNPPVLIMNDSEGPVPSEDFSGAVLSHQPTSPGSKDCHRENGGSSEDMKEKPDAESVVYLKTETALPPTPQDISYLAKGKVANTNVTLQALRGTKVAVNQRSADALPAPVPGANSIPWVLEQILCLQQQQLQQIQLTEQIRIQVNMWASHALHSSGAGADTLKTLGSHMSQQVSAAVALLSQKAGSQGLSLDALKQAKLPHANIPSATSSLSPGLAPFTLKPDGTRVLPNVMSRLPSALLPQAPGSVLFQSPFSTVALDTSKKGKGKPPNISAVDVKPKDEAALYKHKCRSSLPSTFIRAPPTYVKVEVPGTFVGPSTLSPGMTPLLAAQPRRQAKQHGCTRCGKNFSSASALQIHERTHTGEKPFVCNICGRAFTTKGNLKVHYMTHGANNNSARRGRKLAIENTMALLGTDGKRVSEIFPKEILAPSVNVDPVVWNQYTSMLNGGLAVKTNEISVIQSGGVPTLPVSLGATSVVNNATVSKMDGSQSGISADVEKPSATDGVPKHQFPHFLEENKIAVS
Sequence | E-score
CCAACGAG | -0.107
GTAAATAA | 0.327
GAGATGAA | -0.0418
AAACCCTC | 0.0154
AAAGGCTA | -0.0846
ACCACGCC | -0.191
ACATCCCG | 0.00462
ACTAACGA | 0.0719
ACATGTCG | 0.0319
GTTTAACA | 0.162
CCTTGCTA | -0.0114
TCGCTGCA | -0.116
ATTAGCAA | 0.237
GAATGGGC | -0.165
AGGAACAG | -0.114
ACGCGCTG | -0.319
GCGCGGAC | -0.227
AAACGTAT | 0.219
ATCACGCC | -0.0366
CAGACACA | -0.058
GCTGAACA | -0.0417
AGCCGAAT | -0.131
CCTATAGG | -0.252
AGGTTGAT | -0.0449
CAACCAGA | -0.0782

Block 4 — technique: protein binding microarray; form: double-stranded DNA, one strand shown; sample: in vitro; tested at: not given; baseline: not given; reading: higher = stronger binding
Target: Histone acetyltransferase KAT6A, winged helix 2, GST fusion (KAT6A, Homo sapiens, UniProt Q92794, residues 85-181)
Notes: 8-mer, flanks averaged, mean of 2 arrays, mostly near background
Residues (chain): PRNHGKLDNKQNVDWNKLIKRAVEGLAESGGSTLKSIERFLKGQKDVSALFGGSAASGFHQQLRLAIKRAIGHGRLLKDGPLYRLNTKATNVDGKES
Sequence | E-score
GCCTGGGA | 0.0803
AACAAGAC | -0.0087
CTGCAAGA | 0.117
AGTATGTA | -0.217
GTAATTAA | -0.152
GAAATGGA | -0.0949
ACTCTAAC | -0.2
CTCCTTAA | -0.0125
ATTTAGTC | 0.00482
ACTATTAT | -0.0365
ACCCGAAT | 0.0418
GGAAGCCA | -0.101
AGACCCGA | 0.098
AGATACGC | -0.045
GTAGTAAA | -0.00696
CTACTGTA | -0.179
ATATGCTA | 0.061
ACCTTCGG | 0.17
ACCCCTAA | -0.165
GTGTATCA | 0.0489
AGGGTTAA | -0.0926
AGCTTATA | -0.158
AATATTGA | 0.166
CTGTGCTC | 0.189
ACCTACGA | -0.0246

Block 5 — technique: RNA Bind-n-Seq; form: RNA; sample: in vitro; tested at: not given; notes: 4-mer, random 30-nt RNA, single round; with: RocA, ADP, phosphate; baseline: input library; reading: higher = stronger binding
Target: ATP-dependent RNA helicase DDX3X, helicase core (DDX3X, Homo sapiens, UniProt O00571, residues 132-607)
Sequence of UniProt O00571 (132-607, looked up): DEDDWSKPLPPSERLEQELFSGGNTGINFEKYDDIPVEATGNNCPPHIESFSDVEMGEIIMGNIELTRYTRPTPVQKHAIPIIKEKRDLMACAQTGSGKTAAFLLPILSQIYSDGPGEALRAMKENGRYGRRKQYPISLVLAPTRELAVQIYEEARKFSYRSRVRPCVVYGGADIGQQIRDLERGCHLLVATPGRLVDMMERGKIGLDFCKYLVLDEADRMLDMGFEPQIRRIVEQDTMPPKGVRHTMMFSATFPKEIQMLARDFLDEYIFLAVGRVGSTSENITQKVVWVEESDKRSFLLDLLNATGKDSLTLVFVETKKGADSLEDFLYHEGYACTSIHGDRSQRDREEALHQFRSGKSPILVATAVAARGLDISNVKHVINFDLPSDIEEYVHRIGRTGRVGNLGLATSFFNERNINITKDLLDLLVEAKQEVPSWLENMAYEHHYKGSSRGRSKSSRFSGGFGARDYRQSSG
Sequence | 4-mer enrichment
AUAG | 1 fold
GCGG | 1.01 fold
UCGG | 1.07 fold
CCGC | 0.713 fold
UUAC | 0.725 fold
GGAU | 1.05 fold
UUUA | 0.982 fold
CAAG | 0.956 fold
GAUG | 1.09 fold
GGUG | 1.31 fold
ACUC | 0.598 fold
CGGG | 1.12 fold
UUCC | 0.732 fold
CGAC | 0.647 fold
GGGA | 1.94 fold
CACC | 0.769 fold
CUGG | 0.824 fold
AAGG | 1.46 fold
UCGA | 1.07 fold
CACA | 0.74 fold
CCAU | 0.739 fold
UUUC | 0.769 fold
AAUU | 1.01 fold
AAAA | 1.13 fold

Block 6 — technique: RNA Bind-n-Seq; form: RNA; sample: in vitro; tested at: not given; baseline: input RNA pool; reading: higher = stronger binding
Target: RING finger protein unkempt homolog, zinc fingers 1-6, GST-SBP tag (UNK, Homo sapiens, UniProt Q9C0B0, residues 30-357)
Notes: RNA with constant flanks, human-mouse chimeric sites, ends assumed
Shared flanks, not repeated: GGGAGUUCUACAGUCCGACGAUC … CAACAGAGGAUUGAGCAUCA
Construct (chain): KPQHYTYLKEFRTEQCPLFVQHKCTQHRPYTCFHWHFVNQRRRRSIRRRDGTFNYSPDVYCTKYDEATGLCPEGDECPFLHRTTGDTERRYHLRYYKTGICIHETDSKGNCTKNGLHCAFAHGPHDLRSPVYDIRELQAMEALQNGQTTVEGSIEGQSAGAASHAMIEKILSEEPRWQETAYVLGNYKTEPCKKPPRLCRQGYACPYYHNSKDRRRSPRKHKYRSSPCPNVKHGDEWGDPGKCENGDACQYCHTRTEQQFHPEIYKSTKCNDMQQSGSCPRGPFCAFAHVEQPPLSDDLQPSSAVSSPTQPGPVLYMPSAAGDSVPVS
Sequence | bound/input enrichment
UUCAAAGAAAAGGGCAGCUGUGUCAUUUCAUAAGUAAAACUGCAUCCGGGAAAUUCUGUUCUUUUGUUUAAUUUUCCCCCAAAUGAAGCCAAAGUGUGUGUUGAAGAACUGAGAAAAAAU | 0.171 ratio
UCGGAUGCUGUGCUGGGUCACUUUUCAUAUCCAGAUCCUUCACAGUGGACAGAUGAAGAACUGGGAAUCCCUCCUGAUGAUGAAGACUGACACUGUAGACUCAGCCUACGAGUAGGAGCA | 0.242 ratio
CUCAGAGAUGUGGCAUAUCAGUAUGUGAAAAAGGGGGCUCGUAUAUUUUUGGAAGGGAAAAUAGACUAUGGCGAGUACAUGGAUAAAAACAAUGUGAGGCGGCAAGCAACAACAAUCAUA | 0.433 ratio
GUGCCCUCCUUCUCGCUGCGGAGCCCGAGCUGGGAACCAUUCCGGGACUGGUACCCUGCACACAGCCGCCUCUUCGAUCAAGCUUUCGGGCUGCCCCGGUUGCCCGAUGAGUGGUCGCAG | 0.0612 ratio
GAGUCGAUUAUGGAAACAACAAUUCGUUAUCUUGCAGAGCUUCGGUGCACUUGCUUGGCGAUAGCAUUGGGGUUUUAUAGGUUCUGGAAGGAGAACUGACGAUGAUGCUGCCGCUGCUGC | 0.224 ratio
UCCUUGGACCCCAGUCAUAUAGGUGACCUGCAAAAAGCAGACACCAGUAGUCAAGGUGCUUUAGUGUUUCUCUCAAAGGACUACGAAAUAGAAAAUCAAAAUCCUCUGGCCUCUCCUACG | 2.17 ratio
ACCUCCCAGGCCUGGGACACCCCACCCAAGAAAGAAAGAAAGUUUUUGGCGUUUCUUUUCCUUCCCCAUACAAAGUGAUUACAGUUUCCCCCGCAAGGGUCUAUCGAAGGGCUUGACGGA | 0.402 ratio

A few entries again (block 5):
Sequence | 4-mer enrichment
UCGG | 1.07 fold
CCGC | 0.713 fold
UUAC | 0.725 fold
GGAU | 1.05 fold
UUUA | 0.982 fold
CAAG | 0.956 fold
GAUG | 1.09 fold
GGUG | 1.31 fold
ACUC | 0.598 fold
CGGG | 1.12 fold
UUCC | 0.732 fold
CGAC | 0.647 fold
GGGA | 1.94 fold
CACC | 0.769 fold
CUGG | 0.824 fold
AAGG | 1.46 fold
UCGA | 1.07 fold
CACA | 0.74 fold
CCAU | 0.739 fold
